Experimental data of several laboratories.
Lines come from different studies, so protocols differ. Numbers after ± are the reported error.

SMILES | assay | test system | setting | scale | endpoint | result
C=CC(=O)NC1CCN(c2ncc3ncnc(Nc4ccc(Oc5ccc6c(c5)ncn6C)c(C)c4)c3n2)CC1 | refers to: general and administration site (SOC) | human male | oral, dose not given, AEs, treatment-related, on drug, CTCAE | – | adverse events incidence | 6%
C=CC(=O)NC1CCN(c2ncc3ncnc(Nc4ccc(Oc5ccc6c(c5)ncn6C)c(C)c4)c3n2)CC1 | – | human, male | oral, 240 mg, treatment-emergent adverse event | – | participants with nausea | 6.3%
CC(C)n1c(Nc2cccnc2)nc2cnc(Nc3ccc(N4CCN(C)CC4)cc3)nc21 | refers to: antithrombin III antibodies elevated | healthy male subjects | oral, 100 mg, study, together with: itraconazole | – | subjects with adverse event | 0%
N#Cc1ccc2c(c1)[C@H]1CCCN(C(=O)c3ccc4[nH]cnc4c3)[C@H]1C2 | – | human, female | 360 mg, day 7 | – | DHEA-S level | 6.7 µmol/L
Cn1cc(Nc2nccc(-c3ccc4c(c3)CN(C3COC3)CC[C@H]4NC(=O)c3cn(C(C)(C)C)nn3)n2)cn1 | refers to: plasma cell count | human, clinical trial, whole blood | 150 mg twice daily, follow-up | – | percent change from baseline | 19.7%
COC(=O)C1=CO[C@@H](O[C@@H]2O[C@H](CO)[C@@H](O)[C@H](O)[C@H]2O)[C@@H]2C(CO)=CC[C@H]12 | post-procedure stability | rat plasma | 8 ng/mL, 1 h, room temperature | – | accuracy | 89.1%
O=C(Nc1ccc(OC(F)(F)Cl)cc1)c1cnc(N2CC[C@@H](O)C2)c(-c2ccn[nH]2)c1 | per treatment cycle, refers to: hemoglobin decrease | human patients | oral, dose not given, 28 day cycle, dose-finding study | – | grade ≥3 event rate | 0.9%
Nc1ncnc2c1ncn2[C@@H]1O[C@H](COP(=O)(O)O)[C@@H](O)[C@H]1O | binding, MIDAS equilibrium dialysis LC-MS | A2AR-BRIL thermostabilized | concentration not given | reference: no-protein control | log2 fold change | -0.124
CNC(=O)c1ccc(-c2cnc3ncc(Cc4ccc5ncccc5c4)n3n2)cc1F | – | other cancer patients | oral, 600 mg twice daily, all grades RP2D expansion | – | abdominal distension incidence | 6%
CCCCC[C@H](O)CC[C@@H]1[C@H]2Cc3cccc(OCC(=O)O)c3C[C@H]2C[C@H]1O | LC-MS/MS | Japanese PAH patients, plasma | inhaled, 54 µg | – | geometric mean Cmax | 0.99 ng/mL
CNC(=O)c1cc(Oc2ccc(NC(=O)Nc3cc(C(C)(C)C)nn3-c3ccc4ncccc4c3)c(F)c2)ccn1 | refers to: worst grade 3 | human | oral, dose not given, cycles 1 and 2, High Cmax subgroup | – | patients with any AE of special interest | 39%
CCN1/C(=C/C(C)=O)Sc2ccc(F)cc21 | – | cynomolgus monkey | oral, 30 mg/kg, 0.5 h post-dose | – | QTc interval (Bazett) | 331 ± 13 ms
CC[C@H](C)[C@@H]1NC(=O)[C@@](C)(NC(=O)[C@H](CCCNC(=N)N)NC(=O)[C@H](CC(C)C)NC(=O)[C@@H](NC(=O)[C@H](CCC(N)=O)NC(=O)[C@H](CC(C)C)NC(C)=O)[C@@H](C)O)CCCC=CCCC[C@@](C)(C(=O)N[C@@H](CC(C)C)C(=O)N[C@@H](Cc2ccc3ccccc3c2)C(N)=O)NC(=O)[C@H](CCCNC(=N)N)NC(=O)[C@H](CCC(N)=O)NC1=O | LC-MS | BALB/c nude mouse, plasma | 2 µM, 0.5 h | – | remaining compound | 91.7%
COc1ccc2nc([S@@+]([O-])Cc3ncc(CO)c(OC)c3C)[nH]c2c1 | – | human | concentration not given, fluvoxamine plus voriconazole inhibition session | reference: (R)-OH-omeprazole over compound | AUC ratio | 3.5 fold
C[C@@H](Oc1ccc(S(C)(=O)=O)cc1C(=O)N1C[C@@H]2C[C@]2(c2cc(C(F)(F)F)on2)C1)C(F)(F)F | – | young healthy humans, plasma and urine | oral, 25 mg, 0 to 24 h, multiple dosing once daily | – | renal clearance at steady state | 3.77 mL/min
C[C@@H]1CCO[C@H]2Cn3cc(C(=O)NCc4ccc(F)cc4F)c(=O)c(O)c3C(=O)N12 | population PK, post-hoc | children, 6 to <10 kg, plasma | oral, 20 mg dispersible tablet, steady state, geometric mean | – | AUC(0-24) | 89500 ng·h/mL
CC[C@H](C)[C@H](NC(=O)CN)C(=O)N[C@@H](CC(C)C)C(=O)N[C@@H](CC(=O)O)C(=O)N[C@@H](C)C(=O)N[C@H](C(=O)N[C@@H](CCCCN)C(=O)N[C@@H](C)C(=O)N[C@H](C(=O)N[C@@H](C)C(N)=O)[C@@H](C)CC)[C@@H](C)CC | circular dichroism | 10 mM SDS | 100 µM | – | helix content | 5%
CC(C)n1c(C2CCNCC2)nc2c([N+](=O)[O-])c(Br)c(Br)cc21 | – | human, urine | oral, 150 mg, 0-24 h, median, single dose | – | amount excreted in urine | 4.81 mg
Cc1cccc(CNC(=O)c2cn(CCNC(=O)c3ccccc3Sc3c([N+](=O)[O-])ncn3C)c3cc4c(cc3c2=O)OCO4)n1 | LC-MS/MS | CD-1 mouse, whole blood | 1 µM, 0.25 h | – | remaining compound | 98.8%
CNC(=O)c1cc(Oc2ccc(NC(=O)Nc3ccc(Cl)c(C(F)(F)F)c3)c(F)c2)cc[n+]1[O-] | long-term stability | mouse plasma | 750 ng/mL, 6 months, -80 °C | – | accuracy | 93.5%
O=C(Nc1nc2cccc(-c3ccc(CN4CCS(=O)(=O)CC4)cc3)n2n1)C1CC1 | – | rheumatoid arthritis patients | oral, 100 mg twice daily, 4 weeks, TEAE regardless of relatedness | – | patients with increased blood triglycerides | 0%
O=C(O)CCC(=O)O.[2H]C([2H])([2H])Oc1cc(C)c2[nH]ccc2c1CN1CC[C@@H](C2CC2)C[C@H]1c1ccc(C(=O)O)cc1 | – | healthy Chinese subjects | 50 to 600 mg, single ascending dose pooled | – | subjects with TEAEs | 41.7%
Cc1ccc([C@@H]2O[C@H](CO)[C@@H](O)[C@H](O)[C@H]2O)cc1Cc1ccc(-c2ccc(F)cc2)s1 | – | Japanese type 2 diabetes patients | 100 mg, day 2, 24 h urine collection | reference: baseline | urinary chloride excretion change | -34.6 mEq

SMILES | assay | test system | setting | scale | endpoint | result
Cc1c(-c2ccc(N3CCc4cccc(C(=O)Nc5nc6ccccc6s5)c4C3)nc2C(=O)O)cnn1CC12CC3(C)CC(C)(C1)CC(OCCNCC[C@H](O)CO)(C3)C2 | – | beagle dog, male, anaesthetised | intravenous infusion, 0.3 mg/kg/min, 15 (unit not given) | reference: vehicle | heart rate change | 0%
O=C(O)CCN1C(=O)CSC1=S | – | Bama miniature pig, excised skin | 10 mM, 1 h, 30% ethanol in saline donor | – | permeation rate | 0.044 ± 0.014 µmol/cm²/h
CN[C@H]1C(=O)N[C@@H]2Cc3ccc(cc3)Oc3cc4cc(c3O[C@@H]3O[C@H](C(=O)O)[C@@H](O)[C@H](O)[C@H]3NC(=O)CCCCCCCCC(C)C)Oc3ccc(cc3Cl)[C@@H](O)[C@@H]3NC(=O)[C@H](NC(=O)[C@@H]4NC(=O)[C@@H](NC2=O)c2cc(cc(O)c2Cl)Oc2cc1ccc2O)c1ccc(O)c(c1)-c1c(O[C@H]2O[C@H](CO)[C@@H](O)[C@H](O)[C@@H]2O)cc(O)cc1[C@@H](C(=O)NCCCN(C)C)NC3=O | population PK model | paediatric patients | dose not given, reference weight 70 kg | – | central volume of distribution | 4.58 L
Cc1ccc(Sc2ccccc2N2CCNCC2)c(C)c1 | – | healthy adult men | oral, 2.5 mg single | – | abdominal distension | 0%
Cc1cc(C)c(CNC(=O)c2cc(Cl)c3c(c2C)O[C@@](C)([C@H]2CC[C@H](N(C)C)CC2)O3)c(=O)[nH]1 | – | relapsed/refractory NHL patients | oral, 200 mg once daily, onset after cycle 1 day 1 | – | grade ≥3 adverse event Hyponatremia | 4.2%
C[Si]1(C)O[Si](C)(C)O[Si](C)(C)O[Si](C)(C)O1 | – | 1-octanol/air | concentration not given | – | entropy of phase change | -0.065 kJ/(mol·K)
NC1(C(=O)N[C@@H](CCO)c2ccc(Cl)cc2)CCN(c2nc[nH]c3nccc2-3)CC1 | – | metastatic CRPC patients | dose not given, grade 3 to 4, treatment-related, all doses, together with: enzalutamide 160 mg daily | – | incidence of Dyspepsia | 0%
Cc1cc(-c2nccc3c2ccn3CC(=O)Nc2ccc(-c3cnccn3)cn2)ccn1 | – | human | 15 mg once daily, multiple ascending dose | – | subjects with ventricular tachycardia | 0%
COc1cc(Nc2ncc3c(n2)-c2ccc(Cl)cc2C(c2c(F)cccc2OC)=NC3)ccc1C(=O)O | refers to: Diarrhea, all grades | cancer patients, phase 1/2 | oral, dose not given, together with: pembrolizumab | – | patients with adverse event | 17%
CCn1cc(C(=O)N2CCOCC2)c(=O)c2cc(NC3Cc4ccccc4C3)cnc21 | – | human, fed | oral suspension, 300 mg/day twice daily, day 1, arithmetic mean | – | half-life | 3.43 h
C[C@@](Cc1ccc(O)c(O)c1)(NN)C(=O)O | – | Parkinson's disease patients, plasma | oral, dose not given, 3 h, high levodopa AUC subgroup (11.5 µmol·h/L), median | – | AUC(0-t) | 0.7 µM·h
O=C(COc1ccc(Cl)cc1)NC12CC(c3nnc([C@H]4C[C@@H](OC(F)(F)F)C4)o3)(C1)C2 | refers to: Fatigue | human | oral, 145 mg once daily, 14 days | – | adverse event incidence | 71.4%
[18F]c1ccc(-c2ccc3c(c2)[nH]c2ccncc23)cn1 | ex vivo biodistribution | APP/PS1 mouse, AD model, hippocampus | intravenous, 30 min | – | SUV | 0.394 ± 0.027
CNC(=O)c1ccc(-c2cnc3ncc(Cc4ccc5ncccc5c4)n3n2)cc1F | – | Japanese patients | oral, 400 mg, grade 3/4 | – | Pneumonitis dose reduction/interruption | 0%
CNCCOC12CC3(C)CC(C)(CC(Cn4ncc(-c5ccc(N6CCc7cccc(C(=O)Nc8nc9ccccc9s8)c7C6)nc5C(=O)O)c4C)(C3)C1)C2 | – | anaesthetised male beagle dogs | intravenous bolus, 0.03 mg/kg, 15 min | reference: baseline | cardiac output change | 4%
NC(CCS)C(=O)O (racemic) | binding, MIDAS equilibrium dialysis LC-MS | A2AR-BRIL thermostabilized | concentration not given | reference: no-protein control | log2 fold change | -0.00185
Cc1ccc(C(=O)N(CCCN)C(c2nc3snc(C)c3c(=O)n2Cc2ccccc2)C(C)C)cc1 (stereo not shown) | refers to: Fatigue | human patients | intravenous, 16 mg/day, CTCAE grade ≥3 | – | patients with adverse events | 0%
OCC1=C[C@@H](O)[C@@H]2C=CO[C@@H](O[C@@H]3O[C@H](CO)[C@@H](O)[C@H](O)[C@H]3O)[C@H]12 | post-procedure stability | rat plasma | 1000 ng/mL, 1 h, room temperature | – | accuracy | 87.8%
CCc1cc(C(=O)NC)c2nccc(N3CCc4c(cc(Cn5ccnc5)cc4-c4cn(C)nc4C(F)(F)F)C3=O)c2c1 | – | Sprague Dawley rats | oral, 50 mg/kg once daily, 7 days | reference: vehicle | reticulocyte count change | -7.98%
O=C(Cc1ccc2ccccc2c1)Nc1cc(C2CCC2)[nH]n1 | – | mouse plasma | 0.5 ng/mL, 40 days, -80 °C, long-term storage stability | – | accuracy | 99.6%
O=C(O)C1=CO[C@@H](O[C@@H]2O[C@H](CO)[C@@H](O)[C@H](O)[C@H]2O)[C@@H]2C(CO)=CC[C@H]12 | post-procedure stability | rat plasma | 1000 ng/mL, 3 h, room temperature | – | accuracy | 98.8%
C[C@@H](N)C1CCN(S(=O)(=O)c2cccc3cnccc23)CC1 | – | healthy volunteers | 150 mg, fasted | – | participants with orthostatic hypotension | 0%
CN(C(=O)n1cnc(-c2cccnc2)c1)C1CCCCC1 | – | Wistar rat, pons | oral, 10 mg/kg/day of BIA 10-2474, 24 h, repeated 5 days | – | concentration | 7.8 ± 0.2 ng/g

For quick reference, copied from above:
SMILES | assay | test system | setting | scale | endpoint | result
N#Cc1ccc2c(c1)[C@H]1CCCN(C(=O)c3ccc4[nH]cnc4c3)[C@H]1C2 | – | human, female | 360 mg, day 7 | – | DHEA-S level | 6.7 µmol/L
Cn1cc(Nc2nccc(-c3ccc4c(c3)CN(C3COC3)CC[C@H]4NC(=O)c3cn(C(C)(C)C)nn3)n2)cn1 | refers to: plasma cell count | human, clinical trial, whole blood | 150 mg twice daily, follow-up | – | percent change from baseline | 19.7%
COC(=O)C1=CO[C@@H](O[C@@H]2O[C@H](CO)[C@@H](O)[C@H](O)[C@H]2O)[C@@H]2C(CO)=CC[C@H]12 | post-procedure stability | rat plasma | 8 ng/mL, 1 h, room temperature | – | accuracy | 89.1%
O=C(Nc1ccc(OC(F)(F)Cl)cc1)c1cnc(N2CC[C@@H](O)C2)c(-c2ccn[nH]2)c1 | per treatment cycle, refers to: hemoglobin decrease | human patients | oral, dose not given, 28 day cycle, dose-finding study | – | grade ≥3 event rate | 0.9%
